Measured values collected from several papers.
Compare with care: the assays were run in different laboratories. Numbers after ± are the reported error.
Method: steady-state kinetics
B1: enzyme E217L/L163H/N249W (Thermobifida fusca, UniProt Q47RK4); chain MTDVYILDAVRTPFGRYGGALSGIRPDDLAAHVLRALAERSPGLDPAAVDDVFFGDANGAGEDNRNVARMAALLAGWPTSVPGVTLNRLCGSGMESVIAANRAIAVGDASLAVAGGVESMSRAPWVLPKPAQGFPTGHETLYSTTLGWRMVNPAMPEQWTVSHGESTEQVAATYGISRAEQDAFALRSHERAARAWAEGVFDAEITQIPGAELERDLSIRETSAEKLAALKPAFRPDGTITAGNASPLWDGAAALLIGDAAAAERVGREPLARIVSRGVAAVDPDVFGIGPVQAAEIALRRAGIGWDDLSVVELNEAFAAQSLACLKLWPDLDPEIVNPNGGAIAIGHPLGASGARIVGTLAHELHRRGGGWGLAAICIGVGQGLAVVLHR
B2: UGT84B1 (Arabidopsis thaliana, UniProt O22182); chain MGSSEGQETHVLMVTLPFQGHINPMLKLAKHLSLSSKNLHINLATIESARDLLSTVEKPRYPVDLVFFSDGLPKEDPKAPETLLKSLNKVGAMNLSKIIEEKRYSCIISSPFTPWVPAVAASHNISCAILWIQACGAYSVYYRYYMKTNSFPDLEDLNQTVELPALPLLEVRDLPSFMLPSGGAHFYNLMAEFADCLRYVKWVLVNSFYELESEIIESMADLKPVIPIGPLVSPFLLGDGEEETLDGKNLDFCKSDDCCMEWLDKQARSSVVYISFGSMLETLENQVETIAKALKNRGLPFLWVIRPKEKAQNVAVLQEMVKEGQGVVLEWSPQEKILSHEAISCFVTHCGWNSTMETVVAGVPVVAYPSWTDQPIDARLLVDVFGIGVRMRNDSVDGELKVEEVERCIEAVTEGPAAVDIRRRAAELKRVARLALAPGGSSTRNLDLFISDITIA
B3: enzyme (Bacillus pumilus, UniProt A8FFI9); chain EARSIAWSVDEFFKNREGTFVIQEVKEKSPWVYNKKRAKERFAPQSTFKVANALIGLQTGAVRDEYDIKYWDGVKREIDNWNRDHTLGSGMRDSVVWYYQAMARDIGEERMNHWVKAIHYGNKDISGGIDQFWLSSTLRISPIEQVRFLKQLYEETLPFDLKNMRTVKRMMVQEEEKHATLYGKTGSGSDIGWYVGFIKHEHKTYILATNIKGTGIEAKDITYRILKKYHLMEASV
B4: protein E15D (Rhodopseudomonas palustris, UniProt Q6N3R9); chain MSNVRVLATDLAFPDGPVVMPDGSVVLVEIRAQQLTRVWPDGRKEVVAKVPGGPNGAALGPDGKMYICNNGGFGWFPSRGTMMPGAPAPHEYIGGSIQRVDLQSGEVETLFDKCGEHPLKGPNDLVFDKHGGLWFTDLGKRRARDMDVGAAYYIKPGMTEITEQVFGTLPLNGIGLSPDEATMYAAETPTGRLWAFDLSGPGEVKPRDVIYRGEKGKPICGLGGYQMFDSLAVEASGNVCVATLVSGCISVIAPDGTLVEQVPTGDRVTTNIAFGGPDLKTAYITLSGKGELIAMDWSRPGLPLNFLNK
B5: enzyme N249W (Thermobifida fusca, UniProt Q47RK4); chain MTDVYILDAVRTPFGRYGGALSGIRPDDLAAHVLRALAERSPGLDPAAVDDVFFGDANGAGEDNRNVARMAALLAGWPTSVPGVTLNRLCGSGMESVIAANRAIAVGDASLAVAGGVESMSRAPWVLPKPAQGFPTGHETLYSTTLGWRMVNPAMPEQWTVSLGESTEQVAATYGISRAEQDAFALRSHERAARAWAEGVFDAEITQIPGAELERDESIRETSAEKLAALKPAFRPDGTITAGNASPLWDGAAALLIGDAAAAERVGREPLARIVSRGVAAVDPDVFGIGPVQAAEIALRRAGIGWDDLSVVELNEAFAAQSLACLKLWPDLDPEIVNPNGGAIAIGHPLGASGARIVGTLAHELHRRGGGWGLAAICIGVGQGLAVVLHR
B6: Lxyl-p1-1 A72T/V91S (Lentinula edodes, UniProt G8GLN9); chain YFSGLGLGSERSIFRRDLNSTGDESNSTQWPAPLANGGKSWASAFKKAKSTVTEMTVEELANITSGVIGLCSGVTGAVTRLGIPELCLQDGPIGPRGVHGSSQFPAGLTVAATWDRTLMYARARGMGQEFHDQGVHIALAPVTGGPLGRTPLNGRGWEGTFADPYACGEASYQSVKGLTDAGVATVSKHWIAYEQETSRNLYIEFDGVSQADIQLPISSNVDDLTMHELYMWSFAEAVRAGTNHIMCSYNRINNTHSCNNAKGLNQLLKTELNFQGGVVSDWGGQWDSVLSAENGLDVGMPGEGFLGELGDFWGTTLADLINNGTVSEDLVRDKVVRLLTGYYYLGQDINPPPPFVYNTIGAPTLNATSGYRNVRKPGTAELIKEIGSASVTLLKNTGSLPLKHPQRIAVLGNDATYNVLGPNACGLANSACDIDNLNGTLTTGGGSGSALSPYTITPLEALQKRAIEDNAEIAAVVANSNTTTGAEDAIAALLPDADVTFVFLNRYSEEGADAPDFSLGGDGDNLMDLAVTYSSNVVVVIHTTGVVDIEKWADNPNVTAILVAYLPGQEAGNSLVPVLYGDVAPSGKLPWTWGKSIDDYVPNGVVYTDAYSPQSNFTEGVFIDYRWFDKMGITPRYEFGFGLSYTTFTYSNLIVDHGRWAKDYSSVMETAEPFAEWDGTNSLYDVIFTVFATITNTGNLTGSEVAQLYISIPGDNQPVRQLRGFDKIKDLPVGDSAVVTFPIRRKDVSSWSVVDQLWYVPNGDFLISVGGSSRDLPLNTTWTP
B7: enzyme W1065M (Limosilactobacillus reuteri, UniProt Q5SBN3); chain INGQQYYIDPTTGQPRKNFLLQNGNDWIYFDKDTGAGTNALKLQFDKGTISADEQYRRGNEAYSYDDKSIENVNGYLTADTWYRPKQILKDGTTWTDSKETDMRPILMVWWPNTVTQAYYLNYMKQYGNLLPASLPSFSTDADSAELNHYSELVQQNIEKRISETGSTDWLRTLMHEFVTKNSMWNKDSENVDYGGLQLQGGFLKYVNSDLTKYANSDWRLMNRTATNIDGKNYGGAEFLLANDIDNSNPVVQAEELNWLYYLMNFGTITGNNPEANFDGIRVDAVDNVDVDLLSIARDYFNAAYNMEQSDASANKHINILEDMGWDDPAYVNKIGNPQLTMDDRLRNAIMDTLSGAPDKNQALNKLITQSLVNRANDNTENAVIPSYNFVRAHDSNAQDQIRQAIQAATGKPYGEFNLDDEKKGMEAYINDQNSTNKKWNLYNMPSAYTILLTNKDSVPRVYYGDLYQDGGQYMEHKTRYFDTITNLLKTRVKYVAGGQTMSVDKNGILTNVRFGKGAMNATDTGTDETRTEGIGVVISNNTNLKLNDGESVVLHMGAAHKNQKYRAVILTTEDGVKNYTNDTDAPVAYTDANGDLHFTNTNLDGQQYTAVRGYANPDVTGYLAVWVPAGAADDQDARTAPSDEAHTTKTAYRSNAALDSNVIYEGFSNFIYWPTTESERTNVRIAQNADLFKSWGITTFELAPQYNSSKDGTFLDSIIDNGYAFTDRYDLGMSTPNKYGSDEDLRNALQALHKAGLQAIADWVPDQIYNLPGKEAVTVTRSDDHGTTWEVSPIKNVVYITNTIGGGEYQKKYGGEFLDTLQKEYPQLFSQVYPVTQTTIDPSVKIKEWSAKYFNGTNILHRGAGYVLRSNDGKYYNLGTSTQQFLPSQLSVQDNEGYGFVKEGNNYHYYDENKQMVKDAFIQDSVGNWYYFDKNGNMVANQSPVEISSNGASGTYLFLNNGTSFRSGLVKTDAGTYYYDGDGRMVRNQTVSDGAMTYVLDENGKLVSESFDSSATEAHPLKPGDLNGQK
B8: GLYR2 (Arabidopsis thaliana, UniProt F4I907); chain STRDELGTVSIGFLGMGIMGSPMAQNLIKAGCDVTVWNRTKSKCDPLVGLGAKYKSSPEEVTATCDLTFAMLADPESAIDVACGKNGAIFGISSGKGYVDVSTVDVASSILISKQIKDTGALFLEAPVSGSKKPAEDGQLIFLTAGDKPLYEKAAPFLDIMGKSKFYLGEVGNGAAMKLVVNMIMGSMMASFAEGILLSQKVGLDPNVLVEVVSQGAINAPMYSLKGPSMIKSVYPTAFPLKHQQKDMRLALGLAESVSQSTPIAAAANELYKVAKSYGLSDEDFSAVIEALKAAKSREA
Chain of UniProt P0A0C1 (whole entry, looked up): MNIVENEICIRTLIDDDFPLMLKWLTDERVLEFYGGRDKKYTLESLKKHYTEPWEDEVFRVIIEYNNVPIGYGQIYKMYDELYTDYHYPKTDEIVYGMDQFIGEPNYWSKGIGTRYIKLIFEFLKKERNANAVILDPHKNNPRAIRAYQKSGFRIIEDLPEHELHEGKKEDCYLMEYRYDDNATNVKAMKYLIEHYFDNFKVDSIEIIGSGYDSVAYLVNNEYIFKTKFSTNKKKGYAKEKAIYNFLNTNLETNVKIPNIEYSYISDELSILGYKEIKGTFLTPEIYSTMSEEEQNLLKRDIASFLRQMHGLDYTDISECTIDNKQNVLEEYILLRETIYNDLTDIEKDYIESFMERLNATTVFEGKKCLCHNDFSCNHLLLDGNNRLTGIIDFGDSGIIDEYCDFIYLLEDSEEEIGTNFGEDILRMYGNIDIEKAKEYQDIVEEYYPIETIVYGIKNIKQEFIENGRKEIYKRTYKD
Chain of UniProt P33378 (whole entry, looked up): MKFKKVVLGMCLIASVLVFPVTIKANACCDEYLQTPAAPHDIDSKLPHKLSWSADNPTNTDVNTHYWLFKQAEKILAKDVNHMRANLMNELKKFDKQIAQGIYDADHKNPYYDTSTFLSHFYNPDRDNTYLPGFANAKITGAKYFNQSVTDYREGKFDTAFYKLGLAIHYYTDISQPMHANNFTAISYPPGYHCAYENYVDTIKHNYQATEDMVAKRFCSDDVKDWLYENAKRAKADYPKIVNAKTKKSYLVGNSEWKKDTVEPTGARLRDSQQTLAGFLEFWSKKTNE
Chain of UniProt C5B120 (whole entry, looked up): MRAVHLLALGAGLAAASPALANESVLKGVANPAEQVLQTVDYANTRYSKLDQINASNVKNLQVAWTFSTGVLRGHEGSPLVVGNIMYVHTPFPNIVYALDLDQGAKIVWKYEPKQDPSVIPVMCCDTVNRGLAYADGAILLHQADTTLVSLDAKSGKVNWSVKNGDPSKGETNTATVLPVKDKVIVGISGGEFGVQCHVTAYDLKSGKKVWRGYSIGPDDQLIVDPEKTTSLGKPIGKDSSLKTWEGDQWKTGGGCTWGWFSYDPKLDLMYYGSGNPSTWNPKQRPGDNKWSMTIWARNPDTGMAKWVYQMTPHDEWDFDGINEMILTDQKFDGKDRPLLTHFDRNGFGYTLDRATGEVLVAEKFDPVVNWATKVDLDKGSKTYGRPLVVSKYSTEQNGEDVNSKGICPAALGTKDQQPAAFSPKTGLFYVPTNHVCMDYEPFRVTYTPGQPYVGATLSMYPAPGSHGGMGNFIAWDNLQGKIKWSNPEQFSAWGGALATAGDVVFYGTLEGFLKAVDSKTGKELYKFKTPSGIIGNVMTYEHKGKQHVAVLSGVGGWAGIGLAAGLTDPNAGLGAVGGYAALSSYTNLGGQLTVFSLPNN
Chain of UniProt Q9HX72 (whole entry, looked up): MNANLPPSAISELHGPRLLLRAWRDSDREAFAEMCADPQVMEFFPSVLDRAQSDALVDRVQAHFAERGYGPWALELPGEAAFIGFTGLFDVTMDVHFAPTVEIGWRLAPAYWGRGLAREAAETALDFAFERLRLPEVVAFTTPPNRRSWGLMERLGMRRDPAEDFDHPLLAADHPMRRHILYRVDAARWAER
Chain of UniProt Q9SQ68 (whole entry, looked up): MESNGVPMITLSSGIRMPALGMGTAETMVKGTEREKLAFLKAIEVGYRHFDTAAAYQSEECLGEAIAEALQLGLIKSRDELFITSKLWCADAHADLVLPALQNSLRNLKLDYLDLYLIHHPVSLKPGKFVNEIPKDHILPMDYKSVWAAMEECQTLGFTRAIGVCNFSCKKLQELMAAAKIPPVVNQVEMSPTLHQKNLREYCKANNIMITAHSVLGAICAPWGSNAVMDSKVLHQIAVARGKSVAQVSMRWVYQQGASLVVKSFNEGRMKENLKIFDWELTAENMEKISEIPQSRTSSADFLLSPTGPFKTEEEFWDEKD
Chain of UniProt Q6XEC0 (whole entry, looked up): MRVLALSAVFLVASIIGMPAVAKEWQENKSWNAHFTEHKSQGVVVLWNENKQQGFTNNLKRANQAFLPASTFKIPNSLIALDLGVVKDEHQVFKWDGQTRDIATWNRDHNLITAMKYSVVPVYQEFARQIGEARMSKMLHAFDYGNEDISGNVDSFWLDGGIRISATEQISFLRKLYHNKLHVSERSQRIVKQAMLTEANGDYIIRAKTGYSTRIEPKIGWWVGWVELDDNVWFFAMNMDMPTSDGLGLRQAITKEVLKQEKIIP

| Substance | substrate | setting | kcat/Km |
| --- | --- | --- | --- |
| B1 (enzyme E217L/L163H/N249W) | CC(C)(COP(=O)(O)OP(=O)(O)OC[C@H]1O[C@@H](n2cnc3c(N)ncnc32)[C@H](O)[C@@H]1OP(=O)(O)O)[C@@H](O)C(=O)NCCC(=O)NCCSC(=O)CCCC(=O)O | pH 7.4, 37 °C | 2.33 M⁻¹ s⁻¹ |
| xoxF1 (Methylorubrum extorquens, UniProt C5B120) | CO | 30 °C | 190000 ± 30000 M⁻¹ s⁻¹ |
| B2 (UGT84B1) | O=C(O)Cc1ccccc1 | pH 7.5, 30 °C | 450 ± 10 M⁻¹ s⁻¹ |
| OXA-48 (Klebsiella pneumoniae, UniProt Q6XEC0) | O=C(Cc1cccs1)N[C@@H]1C(=O)N2C(C(=O)O)=C(/C=C/c3ccc([N+](=O)[O-])cc3[N+](=O)[O-])CS[C@H]12 | pH 7.2, 30 °C | 4e+06 M⁻¹ s⁻¹ |
| B3 (enzyme) | [H][C@]12SCC(COC(C)=O)=C(C(=O)O)N1C(=O)[C@H]2NC(=O)CCC[C@@H](N)C(=O)O | pH 7 | 470 ± 40 M⁻¹ s⁻¹ |
| PA3944 (Pseudomonas aeruginosa, UniProt Q9HX72) | NCC[C@H](N)C(=O)O | pH 8, 37 °C | 39.1 M⁻¹ s⁻¹ |
| plcB (Listeria monocytogenes, UniProt P33378) | CCCCCCC(=O)OC[C@H](COP(=O)([O-])OCC[N+](C)(C)C)OC(=O)CCCCCC | pH 6, 37 °C | 42000 ± 15000 M⁻¹ s⁻¹ |
| aacA-aphD (Staphylococcus aureus, UniProt P0A0C1) | CN[C@@H]1[C@@H](O)[C@@H](O[C@@H]2[C@@H](O)[C@H](O[C@H]3OC(CNCCO)=CC[C@H]3N)[C@@H](N)C[C@H]2NC(=O)[C@@H](O)CCN)OC[C@]1(C)O | pH 7.5, 25 °C | 1800 M⁻¹ s⁻¹ |
| enzyme (Delftia acidovorans, UniProt A9BQX8) | NC(=O)C1=CN([C@@H]2O[C@H](COP(=O)(O)OP(=O)(O)OC[C@H]3O[C@@H](n4cnc5c(N)ncnc54)[C@H](O)[C@@H]3O)[C@@H](O)[C@H]2O)C=CC1 | cofactor varied | 582000 M⁻¹ s⁻¹ |
| B4 (protein E15D) | O=C1CCc2ccccc2O1 | pH 8, NaCl 150 mM, no saturation, together with: CaCl2 1 mM | 4000 M⁻¹ s⁻¹ |
| B5 (enzyme N249W) | CC(C)(COP(=O)(O)OP(=O)(O)OC[C@H]1O[C@@H](n2cnc3c(N)ncnc32)[C@H](O)[C@@H]1OP(=O)(O)O)[C@@H](O)C(=O)NCCC(=O)NCCSC(=O)CCCC(=O)O | pH 7.4, 37 °C | 1.5 M⁻¹ s⁻¹ |
| enzyme (Papaver somniferum, UniProt Q9SQ68) | COc1ccc2c3c1O[C@H]1[C@@H](O)C=C[C@H]4[C@@H](C2)N(C)CC[C@@]341 |  | 16300 M⁻¹ s⁻¹ |
| B6 (Lxyl-p1-1 A72T/V91S) | [H][C@]12[C@H](OC(=O)c3ccccc3)[C@]3(O)C[C@H](OC(=O)[C@H](O)[C@@H](NC(=O)c4ccccc4)c4ccccc4)C(C)=C([C@@H](O)C(=O)[C@]1(C)[C@@H](O[C@@H]1OC[C@@H](O)[C@H](O)[C@H]1O)C[C@@]1([H])OC[C@@]21OC(C)=O)C3(C)C |  | 11200 ± 560 M⁻¹ s⁻¹ |
| B7 (enzyme W1065M) | OC[C@H]1O[C@@](CO)(O[C@H]2O[C@H](CO)[C@@H](O)[C@H](O)[C@H]2O)[C@@H](O)[C@@H]1O | pH 4.7, 37 °C | 1200 M⁻¹ s⁻¹ |
| B8 (GLYR2) | NC(=O)C1=CN([C@@H]2O[C@H](COP(=O)(O)OP(=O)(O)OC[C@H]3O[C@@H](n4cnc5c(N)ncnc54)[C@H](OP(=O)(O)O)[C@@H]3O)[C@@H](O)[C@H]2O)C=CC1 | pH 7.6, 30 °C, cofactor varied | 8.55e+06 ± 960000 M⁻¹ s⁻¹ |

A few entries again:
| Substance | substrate | setting | kcat/Km |
| --- | --- | --- | --- |
| xoxF1 (Methylorubrum extorquens, UniProt C5B120) | CO | 30 °C | 190000 ± 30000 M⁻¹ s⁻¹ |
| aacA-aphD (Staphylococcus aureus, UniProt P0A0C1) | CN[C@@H]1[C@@H](O)[C@@H](O[C@@H]2[C@@H](O)[C@H](O[C@H]3OC(CNCCO)=CC[C@H]3N)[C@@H](N)C[C@H]2NC(=O)[C@@H](O)CCN)OC[C@]1(C)O | pH 7.5, 25 °C | 1800 M⁻¹ s⁻¹ |
